Published values pooled from the literature.
Numbered parts are unrelated; each lists some results of a single study. Numbers after ± are the reported error.
Sequence of UniProt Q86Y07 (whole entry, looked up): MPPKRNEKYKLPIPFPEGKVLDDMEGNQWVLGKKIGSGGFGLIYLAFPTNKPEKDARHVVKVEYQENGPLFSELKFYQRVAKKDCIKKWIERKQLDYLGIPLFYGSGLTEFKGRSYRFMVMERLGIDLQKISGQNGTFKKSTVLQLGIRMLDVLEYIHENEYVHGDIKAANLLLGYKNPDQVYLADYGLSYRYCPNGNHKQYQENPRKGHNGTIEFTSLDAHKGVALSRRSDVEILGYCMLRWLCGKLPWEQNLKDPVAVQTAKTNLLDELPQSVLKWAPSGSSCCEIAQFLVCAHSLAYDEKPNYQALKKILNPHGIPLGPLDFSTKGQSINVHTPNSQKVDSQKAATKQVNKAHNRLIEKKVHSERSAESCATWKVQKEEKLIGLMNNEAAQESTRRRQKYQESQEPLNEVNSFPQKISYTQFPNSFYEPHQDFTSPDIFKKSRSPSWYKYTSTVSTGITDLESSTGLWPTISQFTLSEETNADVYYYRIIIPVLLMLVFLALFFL
Sequence of UniProt Q16539 (whole entry, looked up): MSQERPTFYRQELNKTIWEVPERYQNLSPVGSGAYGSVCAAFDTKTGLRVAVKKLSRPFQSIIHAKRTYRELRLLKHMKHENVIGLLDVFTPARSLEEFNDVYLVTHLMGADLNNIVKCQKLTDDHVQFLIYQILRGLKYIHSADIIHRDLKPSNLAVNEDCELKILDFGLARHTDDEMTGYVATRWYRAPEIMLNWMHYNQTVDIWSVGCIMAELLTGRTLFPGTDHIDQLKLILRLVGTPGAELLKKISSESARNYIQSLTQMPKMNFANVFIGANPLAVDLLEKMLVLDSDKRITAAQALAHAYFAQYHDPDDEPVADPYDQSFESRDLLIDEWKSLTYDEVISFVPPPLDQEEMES
Sequence of UniProt Q6P3R8 (whole entry, looked up): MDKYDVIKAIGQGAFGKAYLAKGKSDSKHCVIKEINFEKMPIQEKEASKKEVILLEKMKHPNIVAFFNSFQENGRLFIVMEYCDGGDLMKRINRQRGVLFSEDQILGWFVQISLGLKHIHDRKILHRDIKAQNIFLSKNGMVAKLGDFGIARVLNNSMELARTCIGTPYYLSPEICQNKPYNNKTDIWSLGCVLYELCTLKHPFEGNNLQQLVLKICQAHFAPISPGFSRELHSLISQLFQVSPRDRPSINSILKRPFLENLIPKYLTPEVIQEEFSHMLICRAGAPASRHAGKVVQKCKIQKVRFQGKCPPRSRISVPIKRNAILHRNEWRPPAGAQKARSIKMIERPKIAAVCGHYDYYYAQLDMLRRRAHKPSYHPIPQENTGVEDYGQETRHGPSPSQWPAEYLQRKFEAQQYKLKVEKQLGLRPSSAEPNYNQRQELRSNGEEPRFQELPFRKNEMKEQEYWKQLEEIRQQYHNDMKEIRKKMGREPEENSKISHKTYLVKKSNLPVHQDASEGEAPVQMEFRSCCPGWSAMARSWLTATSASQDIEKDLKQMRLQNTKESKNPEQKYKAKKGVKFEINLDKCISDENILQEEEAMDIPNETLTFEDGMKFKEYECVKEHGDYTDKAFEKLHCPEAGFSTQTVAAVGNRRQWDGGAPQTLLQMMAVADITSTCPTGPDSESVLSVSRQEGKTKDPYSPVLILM
Sequence of UniProt P08631 (whole entry, looked up): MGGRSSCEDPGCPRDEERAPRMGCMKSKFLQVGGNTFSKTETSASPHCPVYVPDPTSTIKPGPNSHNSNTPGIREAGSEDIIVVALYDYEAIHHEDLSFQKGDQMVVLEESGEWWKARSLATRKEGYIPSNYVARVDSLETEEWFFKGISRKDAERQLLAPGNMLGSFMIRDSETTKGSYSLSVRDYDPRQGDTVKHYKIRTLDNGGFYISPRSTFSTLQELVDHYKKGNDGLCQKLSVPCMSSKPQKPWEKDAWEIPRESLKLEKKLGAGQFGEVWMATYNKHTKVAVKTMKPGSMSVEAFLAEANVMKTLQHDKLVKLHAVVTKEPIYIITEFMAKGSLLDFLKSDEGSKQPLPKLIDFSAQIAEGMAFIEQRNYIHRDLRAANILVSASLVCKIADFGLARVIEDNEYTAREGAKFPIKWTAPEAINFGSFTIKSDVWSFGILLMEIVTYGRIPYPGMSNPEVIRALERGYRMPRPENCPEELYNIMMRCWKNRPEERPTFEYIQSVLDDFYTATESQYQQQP

Set 1
SMILES: O=C(O)[C@@H]1[C@@H](Cn2nnc3ccccc3c2=O)CC[C@H]1C(=O)c1ccc(OCCC2CCOCC2)cc1
Effect on: cell-free assay
Method: competition with immobilised ligand
Concentration: 1 µM
| target | remaining binding |
| --- | --- |
| Hepatocyte growth factor receptor (MET, Homo sapiens, UniProt P08581, Y1235D) | 98% |
| Ephrin type-B receptor 1 (EPHB1, Homo sapiens, UniProt P54762) | 100% |
| Serine/threonine-protein kinase MRCK alpha (CDC42BPA, Homo sapiens, UniProt Q5VT25) | 91% |
| SRSF protein kinase 2 (SRPK2, Homo sapiens, UniProt P78362) | 100% |
| Tyrosine-protein kinase ABL1, phosphorylated (ABL1, Homo sapiens, UniProt P00519, Y253F) | 100% |
| Serine/threonine-protein kinase VRK2 (VRK2, Homo sapiens, UniProt Q86Y07) | 80% |
| MAP kinase-interacting serine/threonine-protein kinase 1 (MKNK1, Homo sapiens, UniProt Q9BUB5) | 93% |
| Tyrosine-protein kinase HCK (HCK, Homo sapiens, UniProt P08631) | 100% |
| Mitogen-activated protein kinase 14 (MAPK14, Homo sapiens, UniProt Q16539) | 89% |
| Serine/threonine-protein kinase Nek5 (NEK5, Homo sapiens, UniProt Q6P3R8) | 100% |

Set 2
Organism: Sarcocystis neurona
Effect on: parasite growth
Concentration: concentration not given
Notes: secondary screen
| Compound | inhibition [%] |
| --- | --- |
| CCN(CC)C(=O)C1(c2ccccc2)CC1CN.Cl (centres unmarked) | -27.6 |
| Cl.O=C(O)/C=C/c1ccc(Cn2ccnc2)cc1 | -22.8 |
| CN(C)CC[C@@H](c1ccc(Br)cc1)c1ccccn1.O=C(O)/C=C\C(=O)O (single isomer, unassigned) | -3 |
| C[C@H](N[C@@H](CCc1ccccc1)C(=O)O)C(=O)N1CCC[C@H]1C(=O)O | -6.7 |
| COc1ccccc1N1CCN(CCCNc2cc(=O)n(C)c(=O)n2C)CC1.Cl | -30.8 |
| C[C@]12CCC(=O)C=C1CC[C@@H]1[C@@H]2[C@@H](O)C[C@@]2(C)[C@H]1CC[C@]2(O)C(=O)COC(=O)CCC(=O)O | -5.4 |
| C[C@]12C=CC(=O)C=C1CC[C@@H]1[C@@H]2[C@@H](O)C[C@@]2(C)[C@H]1CC[C@]2(O)C(=O)COC(=O)CCC(=O)[O-].[Na+] | -14.4 |
| CC(Cc1ccccc1)(NC(=O)CN)c1ccccc1.Cl (centres unmarked) | 0.6 |
| CC(N/C(=N\C#N)Nc1ccncc1)C(C)(C)C.O (centres unmarked) | -11.2 |
| CN(Cc1cnc2nc(N)nc(N)c2n1)c1ccc(C(=O)N[C@@H](CCC(=O)O)C(=O)O)cc1.O | -27.6 |
| COc1ccc(C(=O)NCc2ccc(OCCN(C)C)cc2)cc1OC.Cl | -21.7 |
| CC[C@@H]1C(=O)OC[C@@H]1Cc1cncn1C.Cl | -17.6 |

Set 3
Compound: C=CCc1ccc(O)c(-c2cc(CC=C)ccc2O)c1
Effect on: chloride current
Method: whole-cell voltage clamp
ANO1 del476-501/F646A: Anoctamin-1 (ANO1, Homo sapiens, UniProt Q5XXA6, del476-501/F646A)
Sequence of UniProt Q5XXA6 (whole entry, unmodified, looked up): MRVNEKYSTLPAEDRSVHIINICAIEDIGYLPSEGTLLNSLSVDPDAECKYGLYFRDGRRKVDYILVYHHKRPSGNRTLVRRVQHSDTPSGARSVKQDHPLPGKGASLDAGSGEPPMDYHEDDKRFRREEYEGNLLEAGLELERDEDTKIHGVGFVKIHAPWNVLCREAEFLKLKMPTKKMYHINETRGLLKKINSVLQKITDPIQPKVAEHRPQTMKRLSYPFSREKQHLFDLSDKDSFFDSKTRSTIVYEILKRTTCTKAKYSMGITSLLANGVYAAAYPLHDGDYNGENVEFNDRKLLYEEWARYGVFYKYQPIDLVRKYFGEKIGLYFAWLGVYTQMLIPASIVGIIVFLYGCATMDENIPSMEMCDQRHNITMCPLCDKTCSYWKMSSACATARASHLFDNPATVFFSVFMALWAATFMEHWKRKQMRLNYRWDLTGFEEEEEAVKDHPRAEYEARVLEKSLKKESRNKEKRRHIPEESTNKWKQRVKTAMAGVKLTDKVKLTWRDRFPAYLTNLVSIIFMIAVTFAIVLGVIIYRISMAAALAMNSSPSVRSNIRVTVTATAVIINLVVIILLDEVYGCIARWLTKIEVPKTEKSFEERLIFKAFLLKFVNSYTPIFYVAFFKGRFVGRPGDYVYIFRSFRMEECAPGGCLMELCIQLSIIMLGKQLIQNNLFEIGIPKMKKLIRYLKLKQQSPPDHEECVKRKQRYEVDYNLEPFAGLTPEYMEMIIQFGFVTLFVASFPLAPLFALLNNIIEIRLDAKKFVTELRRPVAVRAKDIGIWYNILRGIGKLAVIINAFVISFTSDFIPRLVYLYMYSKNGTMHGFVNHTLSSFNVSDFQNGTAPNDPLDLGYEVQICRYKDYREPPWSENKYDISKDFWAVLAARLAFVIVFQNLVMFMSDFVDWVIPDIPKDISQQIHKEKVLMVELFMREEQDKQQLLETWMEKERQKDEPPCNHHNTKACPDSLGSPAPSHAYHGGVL
| target | assay | setting | IC50 [µM] |
| --- | --- | --- | --- |
| Anoctamin-1 (ANO1, Homo sapiens, UniProt Q5XXA6, del476-501/L548A) |  | membrane voltage -40 mV | 37 |
| Anoctamin-1 (ANO1, Homo sapiens, UniProt Q5XXA6, D383A/del476-501) |  | membrane voltage 60 mV | 26.2 |
| Anoctamin-1 (ANO1, Homo sapiens, UniProt Q5XXA6, del476-501/F627A) |  | membrane voltage 40 mV | 20.3 |
| Anoctamin-1 (ANO1, Homo sapiens, UniProt Q5XXA6, del476-501/F803A) |  | membrane voltage -60 mV | 52.3 |
| ANO1 del476-501/F646A |  | membrane voltage 40 mV | 20.3 |
| Anoctamin-1 (ANO1, Homo sapiens, UniProt Q5XXA6, del476-501/M544A) | inhibitor | pore pocket mutant M518A at 100 mV, with: 300 nM Ca2+ | 99 ± 2 |
| Anoctamin-1 (ANO1, Homo sapiens, UniProt Q5XXA6, del476-501/E649D) | inhibitor | E623D mutant at 40 mV | 33.5 |
| ANO1 del476-501/F646A |  | membrane voltage -20 mV | 19.3 |
| Anoctamin-1 (ANO1, Homo sapiens, UniProt Q5XXA6, del476-501/R541K) | inhibitor | R515K mutant at 20 mV | 17 |

Set 4
Target: Myosin light chain kinase, smooth muscle (MYLK, Homo sapiens, UniProt Q15746)
Sequence of UniProt Q15746 (whole entry, looked up): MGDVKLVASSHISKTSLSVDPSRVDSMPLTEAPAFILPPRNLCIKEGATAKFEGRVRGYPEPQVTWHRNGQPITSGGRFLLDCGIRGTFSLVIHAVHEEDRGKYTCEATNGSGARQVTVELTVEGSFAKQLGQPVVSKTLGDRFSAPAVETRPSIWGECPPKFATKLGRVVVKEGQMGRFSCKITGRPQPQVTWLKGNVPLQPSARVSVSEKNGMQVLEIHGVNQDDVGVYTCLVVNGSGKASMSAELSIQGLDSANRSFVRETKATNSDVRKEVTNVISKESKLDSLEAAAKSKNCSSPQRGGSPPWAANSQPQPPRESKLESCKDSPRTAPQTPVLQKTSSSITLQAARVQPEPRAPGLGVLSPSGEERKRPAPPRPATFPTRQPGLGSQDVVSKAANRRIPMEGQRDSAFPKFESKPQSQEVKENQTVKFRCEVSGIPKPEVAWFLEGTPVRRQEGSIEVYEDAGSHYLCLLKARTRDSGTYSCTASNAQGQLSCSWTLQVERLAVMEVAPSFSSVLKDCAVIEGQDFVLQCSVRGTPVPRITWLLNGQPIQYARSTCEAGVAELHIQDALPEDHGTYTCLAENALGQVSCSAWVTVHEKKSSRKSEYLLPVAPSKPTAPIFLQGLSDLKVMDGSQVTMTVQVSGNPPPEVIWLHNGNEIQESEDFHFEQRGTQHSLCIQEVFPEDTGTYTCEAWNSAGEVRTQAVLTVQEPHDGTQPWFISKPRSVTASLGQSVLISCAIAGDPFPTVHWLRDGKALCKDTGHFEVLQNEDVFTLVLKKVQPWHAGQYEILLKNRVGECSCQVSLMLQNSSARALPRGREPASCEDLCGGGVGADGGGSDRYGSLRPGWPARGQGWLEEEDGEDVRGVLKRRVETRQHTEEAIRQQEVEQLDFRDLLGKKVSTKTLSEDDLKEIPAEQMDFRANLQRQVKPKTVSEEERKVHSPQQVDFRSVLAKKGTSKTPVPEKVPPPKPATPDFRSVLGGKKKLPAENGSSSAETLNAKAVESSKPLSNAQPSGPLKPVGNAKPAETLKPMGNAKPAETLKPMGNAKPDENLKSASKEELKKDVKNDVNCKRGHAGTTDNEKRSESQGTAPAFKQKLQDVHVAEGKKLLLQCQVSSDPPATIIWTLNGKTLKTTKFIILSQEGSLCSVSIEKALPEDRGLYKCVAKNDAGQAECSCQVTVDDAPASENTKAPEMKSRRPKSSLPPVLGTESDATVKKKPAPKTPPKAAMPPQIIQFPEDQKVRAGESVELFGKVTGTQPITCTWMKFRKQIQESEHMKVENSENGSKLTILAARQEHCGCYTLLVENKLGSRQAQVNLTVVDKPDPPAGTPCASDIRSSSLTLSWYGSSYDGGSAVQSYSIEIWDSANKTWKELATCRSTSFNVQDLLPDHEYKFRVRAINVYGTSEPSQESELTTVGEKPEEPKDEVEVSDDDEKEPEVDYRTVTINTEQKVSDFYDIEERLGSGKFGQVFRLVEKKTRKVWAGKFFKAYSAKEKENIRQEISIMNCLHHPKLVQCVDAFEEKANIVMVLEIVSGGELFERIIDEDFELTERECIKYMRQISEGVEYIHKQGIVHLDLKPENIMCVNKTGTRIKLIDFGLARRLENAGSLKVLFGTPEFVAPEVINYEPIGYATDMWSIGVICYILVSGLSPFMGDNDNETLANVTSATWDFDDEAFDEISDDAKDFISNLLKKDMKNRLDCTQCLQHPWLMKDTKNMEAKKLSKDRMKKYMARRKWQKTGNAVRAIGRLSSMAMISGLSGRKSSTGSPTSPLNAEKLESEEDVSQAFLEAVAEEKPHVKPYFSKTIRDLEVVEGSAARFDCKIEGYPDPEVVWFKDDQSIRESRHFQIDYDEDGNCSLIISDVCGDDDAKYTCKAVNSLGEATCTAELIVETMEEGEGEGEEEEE
Effect on: enzyme activity
Action: inhibitor
Concentration: 0.5 µM
Baseline: control
| Structure (SMILES) | remaining activity |
| --- | --- |
| Cc1cncc2cccc(S(=O)(=O)N3CCCN(C(=O)CN)C[C@@H]3C)c12 | 103% |
| CC[n+]1c(/C=C/N(C)c2ccccc2)n(-c2ccccc2)c2ccc(-c3nc4ccccc4s3)cc21 | 98.4% |
| Nc1ncnc2c1cnn2-c1ccccc1 | 99.7% |
| O=C1Cc2c([nH]c3ccc([N+](=O)[O-])cc23)-c2ccccc2N1 | 88.8% |
| NC(=O)c1ccc(N(C(N)=O)c2c(F)cccc2F)nc1-c1ccc(F)cc1F | 101% |
| CSc1nc(-c2ccnc(N[C@@H](C)c3ccccc3)c2)c(-c2ccc(F)cc2)[nH]1 (racemic) | 100% |
| COc1cc(Nc2c(C#N)cnc3cc(OCCCN4CCN(C)CC4)c(OC)cc23)c(Cl)cc1Cl | 72% |
| CCCC(=O)Oc1ccc2[nH]c(C(=O)c3cc4ccccc4[nH]3)cc2c1 | 102% |
| O=S(=O)(NCCNC/C=C/c1ccc(Br)cc1)c1cccc2cnccc12 | 90.8% |
| Cc1ccc(NC2=CC(=O)c3sc(C)nc3C2=O)cc1 | 90.1% |
| Cc1cc(Nc2nc(-c3ccccc3)nc3ccccc23)n[nH]1 | 60.2% |
| Nc1nccc(-c2c(-c3ccc(F)cc3)ncn2C2CCNCC2)n1 | 99.8% |
| N#CC(=C(N)Sc1ccc(N)cc1)c1ccccc1C(F)(F)F | 94.9% |
| CC#CC(=O)Nc1cc2c(Nc3ccc(F)c(Cl)c3)ncnc2cn1 | 98.8% |
| O=C1NC(=O)C(c2c[nH]c3ccccc23)=C1c1c[nH]c2ccccc12 | 74.4% |
| COc1ccc(S(=O)(=O)N(CCO)c2ccccc2CN(C)CC=Cc2ccc(Cl)cc2)cc1 | 98.4% |
| Nc1nc(Nc2ccc(S(N)(=O)=O)cc2)nn1C(=O)c1c(F)cccc1F | 80% |
| CC(=O)c1ccc(N2CCOCC2)cc1O | 91.1% |
| CC(C)(C)n1nc(Cc2cccc3ccccc23)c2c(N)ncnc21 | 98.2% |
| Oc1ccc(Nc2nc(-c3ccc(Cl)cc3)cs2)cc1 | 104% |
| CCc1[nH]c(-c2ccc(OC)cc2)nc1-c1ccncc1 | 104% |
| Fc1ccc(-c2nc3n(c2-c2ccncc2)CCS3)cc1 | 105% |
